# Measured values of several laboratories.
# Protocols differ between the studies behind these lines. ± gives the spread as reported.
SMILES,cell line,assay,setting,scale,quantity,result
CN1CCN(c2ccc3nc(-c4cccc(N5CCc6ccccc6C5)n4)[nH]c3c2)CC1,HT-22,"protection from ferroptosis, CCK-8 viability","24 h, together with: 1 µM erastin",,EC50,0.78 µM
CC(=O)O[C@@H]1CC[C@@]2(C)C(CC[C@]3(C)C2C(=O)C=C2C4[C@@H](C)[C@H](C)CC[C@]4(C)CC[C@]23C)[C@@]1(C)C(=O)OCc1cn(-c2cc(=O)oc3ccccc23)nn1 (stereo partly drawn),RAW264.7,"NO release, inhibitor, Griess","10 µM, 24 h, LPS-stimulated",,inhibition,62.8%
CC(C)=CCc1c(OCC2OC2(C)C)ccc2ccc(=O)oc12 (stereo not drawn),"COLO 320 (ABCB1-overexpressing, multidrug-resistant)",cell growth,"150 µM starting, CI at ED50, together with: doxorubicin, ratio 34.84:1",,combination index,0.72
Cc1cc(Nc2ccc(NC(=O)c3ccc(NC(=O)c4ccncc4)cc3)cc2)nc(N)n1,KG-1 with methylated CMV-luciferase,luciferase reporter gene,"0.32 µM, 24 h",relative to: untreated,reporter reactivation,1 ± 0.1 fold
COc1cc(N2CCN(C(=O)CN)CC2)ccc1Nc1ncc(Cl)c(Nc2ccccc2P(C)(C)=O)n1,NCI-H3122 GID4 knockout,degrader,"concentration not given, 24 h",relative to: parental cells,EML4-ALK level,no effect
COc1cc(CNC(=O)C[C@H](C)CCC=C(C)C)ccc1OCc1cn(-c2ccc([N+](=O)[O-])cc2)nn1,Hs-578T breast cancer cells,SRB,"10 µM, 48 h",,growth percent,82%
CC(=O)OC[C@H]1O[C@@H](Sc2sc(C(=O)c3ccc(C)cc3)c(N)c2-c2nc3ccccc3s2)[C@H](OC(C)=O)[C@@H](OC(C)=O)[C@@H]1OC(C)=O,OVCAR-5,SRB,"10 µM, 48 h",relative to: untreated,growth,58.6%
O=C(NCCc1cccc(F)c1)[C@@H]1C[C@@H](Sc2nc3ccccc3[nH]2)CN1Cc1cccc(Cl)c1,MGC-803,"cell invasion, inhibitor",,,effective concentration,2 to 16 µM
CCc1cccc(CC)c1NC(=O)c1nn(C)c2c1CCc1cnc(Nc3ccc(N4CCN(C)CC4)cc3OC)nc1-2,DLD-1 S611R,cell proliferation,,relative to: DLD-1 S611R over parental DLD-1,IC50 ratio,10
Cc1ccc(Nc2ncc3c(n2)N(C2CCCCC2)C(=O)N(c2cc(NC(=O)c4cccc(C(F)(F)F)c4)ccc2C)C3)cn1,Hep3B,"cell growth or viability, ATP luminescence",72 h,,GI50,1.54 µM
COc1cc(CNC(=O)C[C@H](C)CCC=C(C)C)ccc1OCc1cn(-c2cccc(Cl)c2)nn1,EKVX,SRB,"10 µM, 48 h",,growth percent,51.2%
Brc1ccc([C@H]2CN3CCSC3=N2)cc1,HEK293T expressing wild-type HIF-2α,refers to: HIF-2 target genes,"10 µM, 24 h",,mRNA level,decreased
CC(C)CNC(=O)[C@@H](NC[C@@H](O)[C@H](Cc1ccccc1)NC(=O)c1cc(C(=O)N[C@H](C)c2ccccc2)cc(N(C)S(C)(=O)=O)c1)[C@H](C)O,MIN6,"Western blot, refers to: Tmem27 C-terminal fragment","0.9 µM, together with: DAPT",,Tmem27 processing,inhibited
Cc1ccc(CN2C(=O)/C(=N\c3ccc(Cl)cc3Br)c3ccccc32)cc1,B16,,"0.8 µM, 48 h",,S-phase cells,57.6%
COc1cc2c(cc1C)NC(=O)C2=Cc1c(Cl)[nH]c2c1ccc1ccccc12,colon cancer subpanel of NCI-60,,48 h,,TGI,2.88 µM
CC(C)C[C@@H](NC(=O)[C@H](C)NC(=O)CNC(=O)[C@@H](NC=O)C(C)C)C(=O)N[C@@H](C)C(=O)N[C@@H](C(=O)N[C@H](C(=O)N[C@@H](C(=O)N[C@@H](Cc1c[nH]c2ccccc12)C(=O)N[C@H](CC(C)C)C(=O)N[C@@H](Cc1c[nH]c2ccccc12)C(=O)N[C@H](CC(C)C)C(=O)N[C@@H](Cc1c[nH]c2ccccc12)C(=O)N[C@H](CC(C)C)C(=O)N[C@@H](Cc1c[nH]c2ccccc12)C(=O)NCCO)C(C)C)C(C)C)C(C)C,digitonin-permeabilized MCF7,"mitochondrial ATP production, inhibitor",37 °C,,EC50,0.067 ± 0.005 µM
COc1cc(CNC(=O)C[C@H](C)CCC=C(C)C)ccc1OCc1cn(-c2ccccc2)nn1,Hs-578T breast cancer cells,SRB,"10 µM, 48 h",,growth percent,100%
CC(C)Cc1ccc(C(C)C(=O)N/N=C/c2ccc(OCC(=O)N/N=C/c3cccc(O)c3)cc2)cc1 (stereo not drawn),U87 MG,MTT,"40 µM, 48 h",,viability,109%
Cc1ccc(S(=O)(=O)Nc2ccc(O)c3ccccc23)c(C)c1,PANC-1 RFP-GFP-LC3B,,"10 µM, 24 h",,autolysosomes per cell,decreased
C/C=C(/NC(=O)CCCCCCC)C(=O)N/C(=C/C)C(=O)N[C@H](CC(C)C)C(=O)N[C@@H](CC(C)C)C(=O)Nc1ccc(C(=O)N[C@H](C(=O)O)[C@@H](C)O)cc1,RAW264.7,"NO production, Griess","concentration not given, together with: LPS",,inhibition,inhibited
Cc1c2ccnc(C(=O)N[C@H](C)CN(C)C)c2cc2c3cc(OCCCN4CCN(C)CC4)ccc3n(C)c12,"healthy donor LCLs, iPSCs or iPSNs","no effect, qRT-PCR, refers to: all C9orf72 transcripts",concentration not given,,C9orf72 total transcript level,no effect
C=CC(=O)Nc1ccc(F)c(-c2ncnc3[nH]cc(C(=O)OCC)c23)c1,mouse T cells,,"concentration not given, 24 h, together with: IL-2",,cyclin D3 induction,inhibited
COc1cc2c(OC3OCC(OC)C(OC)C3OC(=O)c3ccc(Br)cc3)c3c(c(-c4ccc5c(c4)OCO5)c2cc1OC)C(=O)OC3 (stereo not drawn),CAL-27,"RT-qPCR, refers to: fibronectin","concentration not given, 36 h",,mRNA level,decreased
CC(C)Cc1ccc(C(C)C(=O)NN=Cc2ccc(OCC(=O)NN=Cc3cccc([N+](=O)[O-])c3)cc2)cc1 (stereo not drawn),U87 MG,MTT,"10 µM, 48 h",,viability,80.5%
C=C(C)[C@@H]1CC[C@]2(C(=O)OCO/N=[N+](\[O-])N3CCCC3)CC[C@]3(C)[C@H](CC[C@@H]4[C@@]5(C)CC[C@H](OC(C)=O)C(C)(C)[C@@H]5CC[C@]43C)[C@@H]12,B16-F10,PI flow cytometry,0.25 µM,,cells in G1 phase,43.2%
COc1cc(CNC(=O)C[C@H](C)CCC=C(C)C)ccc1OCc1cn(-c2ccc(Cl)cc2Cl)nn1,RXF 393,SRB,"10 µM, 48 h",,growth percent,14.1%
CN1CCN(C(=O)N(CCCCCCC(=O)NO)c2ccc(-c3ccc4cnn(C)c4c3)cc2)CC1,MM1.S and RPMI-8226,"immunoblot, refers to: β-catenin and c-Myc","concentration not given, 24 h",,protein level,decreased
CNC(=O)C1(N)CC2OC1(C)n1c3ccccc3c3c4c(c5c6ccccc6n2c5c31)C(=O)NC4 (stereo not drawn),MOLM-14,"cell proliferation, MTT","48 h, together with: 50% human plasma",relative to: 10% FBS,IC50 shift,9 fold
COc1cc(CN2CCN(c3cccc(Cl)c3)CC2)c2cc3[n+](cc2c1O)CCc1cc2c(cc1-3)OCO2,HeLa and MDCK,SRB,48 h,relative to: CC50 MDCK over IC50 HeLa,therapeutic index,36.3
COc1cc(CNC(=O)C[C@H](C)CCC=C(C)C)ccc1OCc1cn(-c2ccc(Cl)c(Cl)c2)nn1,Hs-578T breast cancer cells,SRB,"10 µM, 48 h",,growth percent,57%
O=Cc1c(O)ccc2ccccc12,HUVEC,"RNA sequencing, refers to: MYBL2","75 µM, 24 h",relative to: DMSO,log2 fold change,-2.94
COc1cc(CNC(=O)C[C@H](C)CCC=C(C)C)ccc1OCc1cn(-c2ccc(Br)cc2)nn1,LOX IMVI,SRB,"10 µM, 48 h",,growth,74%
CC(=O)OC[C@H]1O[C@@H](Sc2sc(C(=O)c3ccc(Br)cc3)c(N)c2-c2nc3ccccc3s2)[C@H](OC(C)=O)[C@@H](OC(C)=O)[C@@H]1OC(C)=O,RXF 393,SRB,"10 µM, 48 h",relative to: untreated,growth,116%
Nc1cccc[n+]1Cc1cccc(C[n+]2ccccc2N)c1,A549,flow cytometry,"15 µM, 24 h",,cell population in G2/M phase,24.8%
COc1ccc([C@@H]2CC(=O)c3c(O)cc(O[C@@H]4O[C@H](CO[C@@H]5O[C@@H](C)[C@H](O)[C@@H](O)[C@H]5O)[C@@H](O[C@H]5O[C@H](CO)[C@@H](O)[C@H](O)[C@H]5O)[C@H](O)[C@H]4O)cc3O2)cc1O,A549,"cell migration, scratch","100 µg/mL, 72 h",,gap closure,6.55 ± 0.3%
CC/C=C\C/C=C\C/C=C\C/C=C\C/C=C\C/C=C\CCC(=O)Nc1ccn(C2OC(CO)C(O)C2(F)F)c(=O)n1 (stereo not drawn),EKVX,NCI60 screen,,,TGI,20.4 µM
COc1cc(CNC(=O)C[C@H](C)CCC=C(C)C)ccc1OCc1cn(-c2ccc(C#N)cc2)nn1,Hs-578T breast cancer cells,SRB,"10 µM, 48 h",,growth percent,76%
FC(F)(F)c1ccnc(-c2cc(C(F)(F)F)ccn2)c1.FC(F)(F)c1ccnc(-c2cc(C(F)(F)F)ccn2)c1.[Cl-].[Cl-].[Ru+2].c1csc(-c2ccc(-c3ccc(-c4nc5c6cccnc6c6ncccc6c5[nH]4)s3)s2)c1,SK-MEL-28,cell viability,"normoxia, together with: red light 633 nm",,EC50,4.6 µM
COc1cccc(/C=N/NC(=O)COc2ccc(/C=N/NC(=O)C(C)c3ccc(CC(C)C)cc3)cc2)c1O (stereo not drawn),U87 MG,MTT,"40 µM, 48 h",,viability,52%

# Some of these lines once more:
SMILES,cell line,assay,setting,scale,quantity,result
CN1CCN(c2ccc3nc(-c4cccc(N5CCc6ccccc6C5)n4)[nH]c3c2)CC1,HT-22,"protection from ferroptosis, CCK-8 viability","24 h, together with: 1 µM erastin",,EC50,0.78 µM
CC(=O)O[C@@H]1CC[C@@]2(C)C(CC[C@]3(C)C2C(=O)C=C2C4[C@@H](C)[C@H](C)CC[C@]4(C)CC[C@]23C)[C@@]1(C)C(=O)OCc1cn(-c2cc(=O)oc3ccccc23)nn1 (stereo partly drawn),RAW264.7,"NO release, inhibitor, Griess","10 µM, 24 h, LPS-stimulated",,inhibition,62.8%
